Experimental data of several laboratories.
A part holds a random share of what one study measured.
Sequence of UniProt O75460 (whole entry, looked up): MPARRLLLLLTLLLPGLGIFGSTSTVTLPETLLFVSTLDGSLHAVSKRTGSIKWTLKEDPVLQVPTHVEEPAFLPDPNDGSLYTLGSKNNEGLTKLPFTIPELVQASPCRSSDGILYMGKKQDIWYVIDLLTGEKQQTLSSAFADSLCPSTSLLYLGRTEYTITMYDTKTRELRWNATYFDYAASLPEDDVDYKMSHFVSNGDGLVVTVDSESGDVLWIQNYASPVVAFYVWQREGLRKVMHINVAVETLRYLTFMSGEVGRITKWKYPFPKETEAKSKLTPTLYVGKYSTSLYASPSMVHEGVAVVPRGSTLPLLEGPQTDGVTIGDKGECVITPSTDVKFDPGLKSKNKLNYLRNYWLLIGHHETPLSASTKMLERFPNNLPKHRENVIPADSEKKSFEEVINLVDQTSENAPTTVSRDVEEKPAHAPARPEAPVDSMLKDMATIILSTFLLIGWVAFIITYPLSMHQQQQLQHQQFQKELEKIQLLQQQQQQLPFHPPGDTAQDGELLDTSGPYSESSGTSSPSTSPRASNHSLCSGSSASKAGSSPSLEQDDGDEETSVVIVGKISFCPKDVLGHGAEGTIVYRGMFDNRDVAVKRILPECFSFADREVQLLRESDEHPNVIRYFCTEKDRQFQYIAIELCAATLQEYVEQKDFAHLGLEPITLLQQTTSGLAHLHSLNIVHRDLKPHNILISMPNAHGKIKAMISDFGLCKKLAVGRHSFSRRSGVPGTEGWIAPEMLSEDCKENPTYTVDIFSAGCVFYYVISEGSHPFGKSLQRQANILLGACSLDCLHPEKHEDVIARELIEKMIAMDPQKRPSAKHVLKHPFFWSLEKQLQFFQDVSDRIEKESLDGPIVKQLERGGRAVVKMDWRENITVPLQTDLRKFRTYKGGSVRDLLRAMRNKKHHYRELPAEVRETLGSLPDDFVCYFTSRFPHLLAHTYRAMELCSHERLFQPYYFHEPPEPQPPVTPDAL
Sequence of UniProt Q9UQB9 (whole entry, looked up): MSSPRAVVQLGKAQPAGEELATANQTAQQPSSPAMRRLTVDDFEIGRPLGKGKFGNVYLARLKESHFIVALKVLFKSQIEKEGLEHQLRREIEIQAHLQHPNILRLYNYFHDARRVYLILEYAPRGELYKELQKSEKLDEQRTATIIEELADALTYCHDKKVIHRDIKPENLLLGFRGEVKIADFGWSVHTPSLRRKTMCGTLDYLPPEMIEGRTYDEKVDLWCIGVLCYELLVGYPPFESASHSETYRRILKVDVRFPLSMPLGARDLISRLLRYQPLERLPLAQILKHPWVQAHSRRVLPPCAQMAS
Sequence of UniProt Q9NSY1 (whole entry, looked up): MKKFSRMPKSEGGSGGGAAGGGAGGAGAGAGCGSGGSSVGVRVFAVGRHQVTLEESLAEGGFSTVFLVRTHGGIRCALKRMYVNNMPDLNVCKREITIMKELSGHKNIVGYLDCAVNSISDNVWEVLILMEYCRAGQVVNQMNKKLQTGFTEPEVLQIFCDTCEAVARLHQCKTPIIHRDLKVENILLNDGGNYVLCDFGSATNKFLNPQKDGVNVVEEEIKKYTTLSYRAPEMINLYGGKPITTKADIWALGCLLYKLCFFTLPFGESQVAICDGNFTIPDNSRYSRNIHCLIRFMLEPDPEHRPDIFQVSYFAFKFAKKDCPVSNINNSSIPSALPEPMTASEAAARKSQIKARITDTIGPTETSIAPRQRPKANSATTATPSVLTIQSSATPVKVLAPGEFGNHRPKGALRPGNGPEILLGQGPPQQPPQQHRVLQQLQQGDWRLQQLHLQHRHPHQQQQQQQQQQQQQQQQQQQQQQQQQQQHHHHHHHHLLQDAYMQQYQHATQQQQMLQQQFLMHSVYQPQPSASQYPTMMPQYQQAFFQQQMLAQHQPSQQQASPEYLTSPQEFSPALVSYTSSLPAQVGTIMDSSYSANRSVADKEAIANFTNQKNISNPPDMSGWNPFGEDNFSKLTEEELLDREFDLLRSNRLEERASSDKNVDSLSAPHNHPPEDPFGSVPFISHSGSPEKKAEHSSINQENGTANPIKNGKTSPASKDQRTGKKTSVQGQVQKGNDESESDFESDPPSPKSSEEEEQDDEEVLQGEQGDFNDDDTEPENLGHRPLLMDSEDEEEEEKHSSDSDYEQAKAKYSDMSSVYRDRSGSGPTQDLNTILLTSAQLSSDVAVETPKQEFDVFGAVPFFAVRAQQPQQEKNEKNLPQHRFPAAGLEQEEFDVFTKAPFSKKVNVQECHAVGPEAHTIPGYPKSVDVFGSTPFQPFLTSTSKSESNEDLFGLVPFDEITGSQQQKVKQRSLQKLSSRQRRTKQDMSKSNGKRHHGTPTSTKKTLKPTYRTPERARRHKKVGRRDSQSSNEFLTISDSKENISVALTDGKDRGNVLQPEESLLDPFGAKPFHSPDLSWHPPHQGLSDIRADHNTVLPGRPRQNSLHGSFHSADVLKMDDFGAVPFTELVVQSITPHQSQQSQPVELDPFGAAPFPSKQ
Sequence of UniProt P53671 (whole entry, looked up): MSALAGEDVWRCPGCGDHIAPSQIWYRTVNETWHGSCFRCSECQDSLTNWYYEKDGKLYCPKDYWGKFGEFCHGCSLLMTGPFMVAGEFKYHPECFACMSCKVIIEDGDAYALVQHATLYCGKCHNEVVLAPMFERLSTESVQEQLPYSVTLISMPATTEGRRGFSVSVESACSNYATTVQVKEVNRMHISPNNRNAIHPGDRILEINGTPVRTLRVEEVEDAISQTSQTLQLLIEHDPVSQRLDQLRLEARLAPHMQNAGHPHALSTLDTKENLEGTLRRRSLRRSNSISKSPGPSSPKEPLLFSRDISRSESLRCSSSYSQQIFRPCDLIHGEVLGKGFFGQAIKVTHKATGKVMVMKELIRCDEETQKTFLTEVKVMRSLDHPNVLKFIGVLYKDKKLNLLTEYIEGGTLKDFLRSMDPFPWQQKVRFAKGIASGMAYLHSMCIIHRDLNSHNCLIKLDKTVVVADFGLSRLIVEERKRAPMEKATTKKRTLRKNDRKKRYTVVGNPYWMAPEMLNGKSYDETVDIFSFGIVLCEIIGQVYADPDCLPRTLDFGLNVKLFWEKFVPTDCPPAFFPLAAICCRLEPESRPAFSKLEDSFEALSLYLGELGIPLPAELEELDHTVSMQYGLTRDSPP
Sequence of UniProt Q02750 (whole entry, looked up): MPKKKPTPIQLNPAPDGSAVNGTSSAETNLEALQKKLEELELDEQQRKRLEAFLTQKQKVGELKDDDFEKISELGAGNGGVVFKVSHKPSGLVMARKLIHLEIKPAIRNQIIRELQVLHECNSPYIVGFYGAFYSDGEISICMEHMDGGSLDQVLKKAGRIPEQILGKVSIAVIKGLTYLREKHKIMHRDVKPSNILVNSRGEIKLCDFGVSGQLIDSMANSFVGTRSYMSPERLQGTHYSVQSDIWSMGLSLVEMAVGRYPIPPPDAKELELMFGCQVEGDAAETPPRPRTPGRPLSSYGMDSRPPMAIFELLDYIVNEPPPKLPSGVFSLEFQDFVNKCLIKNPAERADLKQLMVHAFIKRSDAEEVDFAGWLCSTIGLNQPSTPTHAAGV

Series 1 — mode: agonist; measurement: EC50
Target: Beta-1 adrenergic receptor (ADRB1, Homo sapiens, UniProt P08588)
Sequence of UniProt P08588 (whole entry, looked up): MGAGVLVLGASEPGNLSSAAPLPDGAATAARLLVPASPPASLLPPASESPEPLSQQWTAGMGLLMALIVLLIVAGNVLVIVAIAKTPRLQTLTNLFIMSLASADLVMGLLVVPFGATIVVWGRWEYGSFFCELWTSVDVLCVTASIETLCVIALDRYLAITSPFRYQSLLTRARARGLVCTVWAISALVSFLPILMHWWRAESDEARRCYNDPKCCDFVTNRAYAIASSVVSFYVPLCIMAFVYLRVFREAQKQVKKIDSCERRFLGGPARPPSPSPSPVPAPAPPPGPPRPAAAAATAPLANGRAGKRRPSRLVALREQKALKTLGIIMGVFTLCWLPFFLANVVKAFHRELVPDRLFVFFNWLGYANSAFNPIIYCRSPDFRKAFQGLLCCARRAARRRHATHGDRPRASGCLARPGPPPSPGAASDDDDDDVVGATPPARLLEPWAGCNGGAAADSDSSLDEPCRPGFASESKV
CC[C@@H]1OC(OC(c2c[nH]cn2)C(NC(=O)c2nc(C(CC(N)=O)NCC(N)C(N)=O)nc(N)c2C)C(=O)NC(C)C(O)C(C)C(=O)NC(C(=O)NCCc2nc(-c3nc(C(=O)NCCCCNC(=N)N)cs3)cs2)C(C)O)[C@@H](O[C@H]2O[C@H](CO)[C@@H](O)[C@H](OC(N)=O)[C@@H]2O)[C@@H](C)[C@@H]1C (some centres unmarked): ≥ 100 µM
CN1CCN(CC(O)COc2ccc(C34CC5CC(CC(C5)C3)C4)cc2)CC1 (centres unmarked): ≥ 100 µM
Cc1cc(I)ccc1Nc1nc(NCCN2CCOCC2)nc(N2CCOCC2)n1: ≥ 100 µM
CN(C)c1ccc(CN2CCOC[C@H]2c2nc(-c3cccc(F)c3)c[nH]2)cc1: ≥ 100 µM
COc1ccccc1N1CCN(CC(=O)N2CCCC2c2ccc3c(c2)OCCO3)CC1 (centres unmarked): ≥ 100 µM
O=C1c2cnc(-c3ccsc3)nc2OCCN1c1ccccc1: ≥ 100 µM
COCCCNc1ncccc1-c1cc(-c2ccccc2)nc2c(C)noc12: ≥ 100 µM
Cc1cc(-c2nccc3c(=O)cc(N(C)C)oc23)ccn1: ≥ 100 µM
COc1ccc(OCC(O)CN2CCC(O)CC2)c(CN(C)Cc2csc(C)n2)c1 (centres unmarked): ≥ 100 µM
CC(C)(C)NCC(O)COc1cc(Cl)ccc1Cl (centres unmarked): ≥ 100 µM
Cc1ccccc1-c1n[nH]c2ncc(-c3cn[nH]c3)nc12: ≥ 100 µM
Cc1noc2c(-c3cn[nH]c3)cc(-c3ccccc3)nc12: ≥ 100 µM
CN(c1ccccc1)c1cc(=O)c2ccnc(NCCc3ccccn3)c2o1: ≥ 100 µM
COc1ccc(C(=O)N2CCc3cc(OC)c(OC)cc3C2COc2ccc3c(C)cc(=O)oc3c2)c(OC)c1 (centres unmarked): ≥ 100 µM

Series 2 — read-out: enzyme activity; mode: inhibitor; concentration: 0.5 µM; baseline: control; measurement: remaining activity
Target: Mitogen-activated protein kinase kinase kinase 9 (MAP3K9, Homo sapiens, UniProt P80192)
Sequence of UniProt P80192 (whole entry, looked up): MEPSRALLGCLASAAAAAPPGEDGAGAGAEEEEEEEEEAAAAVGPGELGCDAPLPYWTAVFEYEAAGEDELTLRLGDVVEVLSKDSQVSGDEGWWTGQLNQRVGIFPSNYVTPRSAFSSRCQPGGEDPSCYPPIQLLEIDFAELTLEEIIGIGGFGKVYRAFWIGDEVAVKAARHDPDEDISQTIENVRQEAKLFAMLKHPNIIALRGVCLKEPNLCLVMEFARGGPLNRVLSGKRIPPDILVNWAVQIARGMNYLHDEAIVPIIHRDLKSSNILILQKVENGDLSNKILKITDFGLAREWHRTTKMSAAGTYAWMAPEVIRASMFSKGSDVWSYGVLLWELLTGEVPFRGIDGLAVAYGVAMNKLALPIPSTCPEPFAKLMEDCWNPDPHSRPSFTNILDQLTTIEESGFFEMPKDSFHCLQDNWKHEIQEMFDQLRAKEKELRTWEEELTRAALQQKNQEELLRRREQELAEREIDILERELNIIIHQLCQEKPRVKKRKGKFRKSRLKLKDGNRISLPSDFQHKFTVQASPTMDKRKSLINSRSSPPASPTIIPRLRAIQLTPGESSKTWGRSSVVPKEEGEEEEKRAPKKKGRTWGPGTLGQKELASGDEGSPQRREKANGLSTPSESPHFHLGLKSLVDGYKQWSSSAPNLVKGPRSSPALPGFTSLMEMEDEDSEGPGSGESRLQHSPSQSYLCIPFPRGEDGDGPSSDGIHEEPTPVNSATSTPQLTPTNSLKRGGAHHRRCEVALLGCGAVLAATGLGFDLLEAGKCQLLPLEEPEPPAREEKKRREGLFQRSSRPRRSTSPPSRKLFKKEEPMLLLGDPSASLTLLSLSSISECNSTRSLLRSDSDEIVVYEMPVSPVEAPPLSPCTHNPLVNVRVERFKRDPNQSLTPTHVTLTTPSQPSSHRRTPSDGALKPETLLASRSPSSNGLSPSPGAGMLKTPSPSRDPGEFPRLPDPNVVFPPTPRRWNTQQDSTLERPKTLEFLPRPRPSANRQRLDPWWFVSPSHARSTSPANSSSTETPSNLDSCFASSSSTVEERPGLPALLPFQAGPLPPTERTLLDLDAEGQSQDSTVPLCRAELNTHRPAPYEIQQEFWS
CC#CC(=O)Nc1cc2c(Nc3ccc(F)c(Cl)c3)ncnc2cn1: 95.8%
CSc1nc(-c2ccnc(N[C@@H](C)c3ccccc3)c2)c(-c2ccc(F)cc2)[nH]1 (racemic): 101%
COc1ccc(S(=O)(=O)N(CCO)c2ccccc2CN(C)CC=Cc2ccc(Cl)cc2)cc1: 102%
Oc1ccc(Nc2nc(-c3ccc(Cl)cc3)cs2)cc1: 80.9%
O=S(=O)(NCCNC/C=C/c1ccc(Br)cc1)c1cccc2cnccc12: 99.6%
O=C1NC(=O)C(c2c[nH]c3ccccc23)=C1c1c[nH]c2ccccc12: 55.4%
CCc1[nH]c(-c2ccc(OC)cc2)nc1-c1ccncc1: 88.1%
COc1cc(Nc2c(C#N)cnc3cc(OCCCN4CCN(C)CC4)c(OC)cc23)c(Cl)cc1Cl: 16.5%
N#CC(=C(N)Sc1ccc(N)cc1)c1ccccc1C(F)(F)F: 85.9%
Nc1nc(Nc2ccc(S(N)(=O)=O)cc2)nn1C(=O)c1c(F)cccc1F: 25.6%
O=C1Cc2c([nH]c3ccc([N+](=O)[O-])cc23)-c2ccccc2N1: 10.5%
Nc1ncnc2c1cnn2-c1ccccc1: 106%
Cc1cc(Nc2nc(-c3ccccc3)nc3ccccc23)n[nH]1: 14.8%

Series 3 — concentration: 1 µM; measurement: remaining binding
SMILES: C[C@H](NC(=O)c1cnc2n1[C@](C)(Cc1ccc(C#N)cc1)C(=O)N2c1cc(Cl)c(F)c(Cl)c1)C(=O)NC1(c2ccccn2)CC1
Hepatocyte growth factor receptor (MET, Homo sapiens, UniProt P08581, Y1235D); cell-free assay, competition with immobilised ligand: 100%
Epidermal growth factor receptor (EGFR, Homo sapiens, UniProt P00533, del747-750/T751S); cell-free assay, competition with immobilised ligand: 100%
Serine/threonine-protein kinase SBK1 (SBK1, Homo sapiens, UniProt Q52WX2); cell-free assay, competition with immobilised ligand: 100%
RAC-beta serine/threonine-protein kinase (AKT2, Homo sapiens, UniProt P31751); cell-free assay, competition with immobilised ligand: 100%
Dual specificity mitogen-activated protein kinase kinase 1 (MAP2K1, Homo sapiens, UniProt Q02750); cell-free assay, competition with immobilised ligand: 92%
BMP-2-inducible protein kinase (BMP2K, Homo sapiens, UniProt Q9NSY1); cell-free assay, competition with immobilised ligand: 100%
Epidermal growth factor receptor (EGFR, Homo sapiens, UniProt P00533, L858R); cell-free assay, competition with immobilised ligand: 100%
Serine/threonine-protein kinase PLK1 (PLK1, Homo sapiens, UniProt P53350); cell-free assay, competition with immobilised ligand: 100%
Hepatocyte growth factor receptor (MET, Homo sapiens, UniProt P08581, M1250T); cell-free assay, competition with immobilised ligand: 100%
Aurora kinase C (AURKC, Homo sapiens, UniProt Q9UQB9); cell-free assay, competition with immobilised ligand: 100%
Tyrosine-protein kinase HCK (HCK, Homo sapiens, UniProt P08631); cell-free assay, competition with immobilised ligand: 100%
LIM domain kinase 2 (LIMK2, Homo sapiens, UniProt P53671); cell-free assay, competition with immobilised ligand: 100%
Mitogen-activated protein kinase kinase kinase kinase 2 (MAP4K2, Homo sapiens, UniProt Q12851); cell-free assay, competition with immobilised ligand: 100%
Epidermal growth factor receptor (EGFR, Homo sapiens, UniProt P00533, del746-750); cell-free assay, competition with immobilised ligand: 100%
AP2-associated protein kinase 1 (AAK1, Homo sapiens, UniProt Q2M2I8); binding: 100%
SRSF protein kinase 1 (SRPK1, Homo sapiens, UniProt Q96SB4); cell-free assay, competition with immobilised ligand: 81%
Serine/threonine-protein kinase/endoribonuclease IRE1 (ERN1, Homo sapiens, UniProt O75460); cell-free assay, competition with immobilised ligand: 96%
Epidermal growth factor receptor (EGFR, Homo sapiens, UniProt P00533, T790M); cell-free assay, competition with immobilised ligand: 95%
Dual specificity mitogen-activated protein kinase kinase 4 (MAP2K4, Homo sapiens, UniProt P45985); cell-free assay, competition with immobilised ligand: 100%
Myosin light chain kinase 2, skeletal/cardiac muscle (MYLK2, Homo sapiens, UniProt Q9H1R3); cell-free assay, competition with immobilised ligand: 98%

Series 4 — organism: Sarcocystis neurona; read-out: parasite activity; concentration: 10 µM; time: 96 h; measurement: activity class
CCc1oc2ccccc2c1C(=O)c1cc(Br)c(O)c(Br)c1: inactive
C#C[C@]1(OC(C)=O)CC[C@H]2[C@@H]3CCC4=CC(=O)CC[C@@H]4[C@H]3CC[C@@]21C: inactive
CC(C)n1c(/C=C/C(O)CC(O)CC(=O)O)c(-c2ccc(F)cc2)c2ccccc21 (centres unmarked): inactive
COc1c(N2CCNC(C)C2)c(F)cc2c(=O)c(C(=O)O)cn(C3CC3)c12 (centres unmarked): inactive
O=C(O)CCc1nc(-c2ccccc2)c(-c2ccccc2)o1: inactive
CC(c1cc2ccccc2s1)N(O)C(N)=O (centres unmarked): inactive
COc1ccc(-c2oc3c(CC=C(C)C)c(O[C@@H]4O[C@H](CO)[C@@H](O)[C@H](O)[C@H]4O)cc(O)c3c(=O)c2O[C@@H]2O[C@@H](C)[C@H](O)[C@@H](O)[C@H]2O)cc1: inactive
C[C@@H](c1ncncc1F)[C@](O)(Cn1cncn1)c1ccc(F)cc1F: inactive
O=c1c(O[C@@H]2O[C@H](CO)[C@H](O)[C@H](O)[C@H]2O)c(-c2ccc(O)c(O)c2)oc2cc(O)cc(O)c12: inactive
Nc1ccn([C@@H]2O[C@H](CO)[C@@H](O)[C@@H]2O)c(=O)n1: inactive
CN(C)CCCC1(c2ccc(F)cc2)OCc2cc(C#N)ccc21 (centres unmarked): inactive
O=C(c1ccc(F)cc1)C1CCN(CCn2c(=S)[nH]c3ccccc3c2=O)CC1: active

Some of these lines once more (series 1):
CC[C@@H]1OC(OC(c2c[nH]cn2)C(NC(=O)c2nc(C(CC(N)=O)NCC(N)C(N)=O)nc(N)c2C)C(=O)NC(C)C(O)C(C)C(=O)NC(C(=O)NCCc2nc(-c3nc(C(=O)NCCCCNC(=N)N)cs3)cs2)C(C)O)[C@@H](O[C@H]2O[C@H](CO)[C@@H](O)[C@H](OC(N)=O)[C@@H]2O)[C@@H](C)[C@@H]1C (some centres unmarked): ≥ 100 µM
CN(c1ccccc1)c1cc(=O)c2ccnc(NCCc3ccccn3)c2o1: ≥ 100 µM
COc1ccc(OCC(O)CN2CCC(O)CC2)c(CN(C)Cc2csc(C)n2)c1 (centres unmarked): ≥ 100 µM
O=C1c2cnc(-c3ccsc3)nc2OCCN1c1ccccc1: ≥ 100 µM
Cc1noc2c(-c3cn[nH]c3)cc(-c3ccccc3)nc12: ≥ 100 µM
Cc1cc(-c2nccc3c(=O)cc(N(C)C)oc23)ccn1: ≥ 100 µM
CC(C)(C)NCC(O)COc1cc(Cl)ccc1Cl (centres unmarked): ≥ 100 µM
Cc1cc(I)ccc1Nc1nc(NCCN2CCOCC2)nc(N2CCOCC2)n1: ≥ 100 µM
COc1ccccc1N1CCN(CC(=O)N2CCCC2c2ccc3c(c2)OCCO3)CC1 (centres unmarked): ≥ 100 µM
